# Experimental data pooled from the literature.
# Compare with care: the assays were run in different laboratories. ± gives the spread as reported.
# Cell line: CAKI-1
Compound,assay,setting,scale,measurement,result
Cc1ccc([N+](=O)[O-])cc1S(=O)(=O)N(C)/N=C/c1cnc2ccc(Br)cn12,MTS,NCI60 panel,,IC50,350 nM
O=C(Nc1nnc2c1c(-c1ccc(Cl)cc1)nc1sc(=Cc3ccco3)c(=O)n12)c1ccccc1 (mixture of isomers),SRB,"10 µM, NCI60 single-dose screen",relative to: untreated,cell growth,42.2%
O=C(NCc1cc(F)cc(F)c1)[C@@]1(O)CCN(c2ccc3[nH]ccc3c2)C1=O,cell growth or viability,,,IC50,170 nM
CNS(=O)(=O)Nc1nccc(Cc2c(C)c3ccc(Oc4ncccc4F)cc3oc2=O)c1F,cell viability,7 days,,IC50,> 1000 nM
CNC(NN=Cc1ccc([N+](=O)[O-])o1)=[S+][Au-][Cl],annexin V/PI flow cytometry,"5 µM, 72 h",,cell fraction ANV+/PI−,9.9 ± 2.1%
Cn1ncc(-c2ccc3c(=O)[nH]nc(CN)c3c2)c1-c1c(F)c(Cl)cc(OC2CC2)c1C#N,"cell viability, inhibitor, CellTiter-Glo","120 h, baseline-subtracted",,IC50,1530 nM
CNC(=S)NN=Cc1ccc([N+](=O)[O-])o1,"cell growth or viability, resazurin",,,IC50,22500 nM
CCCC(CCC)C(=O)OCc1cn(-c2cc3ccccc3oc2=O)nn1,NCI60 single-dose screen,10 µM,,growth percentage,97.7%
C1=[N+]2CCCC[N+]3=Cc4ccc5[n]4[Au-]23[n]2c1ccc2-c1nc2ccccc2nc1-5.F[P-](F)(F)(F)(F)F,NCI60 five-dose screen,,,TGI,4 -log M
CN(C)CCN1CCN(c2ccc3nc(-c4ccc5nc(-c6ccc(C(F)(F)F)cc6)[nH]c5c4)[nH]c3c2)CC1,SRB,"10 µM, 48 h",,growth percent,73.6%
CCNC(=S)NN=Cc1ccc([N+](=O)[O-])o1,"cell growth or viability, resazurin",,,IC50,42500 nM
CC(C)c1ccc(N(C)c2ccc3c(c2)OCC[C@H]3CNc2cnccc2C(=O)O)cc1,"cell viability, CellTiter-Glo",7 days,,IC50,4.43 nM
CCN(C(=O)c1cc(F)ccc1Oc1nncnc1N1CCC2(C1)CN([C@H](CCCN(C)CCOC)C(C)C)C2)C(C)C,cell growth or viability,72 h,,GI50,> 10000 nM

# Some of these lines once more:
Compound,assay,setting,scale,measurement,result
CNC(NN=Cc1ccc([N+](=O)[O-])o1)=[S+][Au-][Cl],annexin V/PI flow cytometry,"5 µM, 72 h",,cell fraction ANV+/PI−,9.9 ± 2.1%
O=C(Nc1nnc2c1c(-c1ccc(Cl)cc1)nc1sc(=Cc3ccco3)c(=O)n12)c1ccccc1 (mixture of isomers),SRB,"10 µM, NCI60 single-dose screen",relative to: untreated,cell growth,42.2%
